Measured values collected from several papers.
Lines come from different studies, so protocols differ. Several values in a cell are separate wells, animals, samples, runs or records. pIC50: −log10 of the molar value.
Sequence of UniProt P27338 (whole entry, looked up): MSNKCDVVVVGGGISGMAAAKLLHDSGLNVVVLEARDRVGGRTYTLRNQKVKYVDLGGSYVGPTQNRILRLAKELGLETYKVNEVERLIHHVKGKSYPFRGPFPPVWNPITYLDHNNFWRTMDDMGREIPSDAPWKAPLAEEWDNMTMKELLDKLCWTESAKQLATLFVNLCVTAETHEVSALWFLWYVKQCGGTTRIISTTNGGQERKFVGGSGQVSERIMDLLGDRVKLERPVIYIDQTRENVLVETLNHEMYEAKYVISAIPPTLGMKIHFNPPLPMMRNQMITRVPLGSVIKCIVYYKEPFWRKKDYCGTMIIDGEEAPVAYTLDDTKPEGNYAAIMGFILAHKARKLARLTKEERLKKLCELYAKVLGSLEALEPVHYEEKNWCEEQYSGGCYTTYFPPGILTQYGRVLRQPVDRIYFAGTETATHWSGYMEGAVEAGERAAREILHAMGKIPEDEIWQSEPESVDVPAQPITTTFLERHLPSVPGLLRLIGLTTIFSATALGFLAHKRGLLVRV
Sequence of UniProt Q99808 (whole entry, unmodified, looked up): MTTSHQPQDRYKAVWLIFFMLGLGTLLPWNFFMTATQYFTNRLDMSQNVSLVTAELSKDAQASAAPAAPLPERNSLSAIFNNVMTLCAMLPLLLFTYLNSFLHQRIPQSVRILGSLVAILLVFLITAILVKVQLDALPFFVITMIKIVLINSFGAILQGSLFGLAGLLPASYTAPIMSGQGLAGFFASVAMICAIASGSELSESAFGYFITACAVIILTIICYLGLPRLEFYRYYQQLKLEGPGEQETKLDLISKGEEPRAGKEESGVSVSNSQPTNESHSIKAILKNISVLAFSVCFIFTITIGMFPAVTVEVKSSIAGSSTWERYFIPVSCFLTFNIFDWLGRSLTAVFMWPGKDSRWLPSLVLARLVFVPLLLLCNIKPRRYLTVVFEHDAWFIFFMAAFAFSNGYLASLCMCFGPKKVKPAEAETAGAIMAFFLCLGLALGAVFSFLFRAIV

CS(=O)(=O)c1ccc(OC/C(=C/F)CN)cc1.Cl  inhibition (Amine oxidase [flavin-containing] B (MAOB, Homo sapiens, UniProt P27338); enzyme activity, inhibitor; 1.111 µM): 0.195% and -0.111%
CC(C)(C)c1ccc(Oc2ccc3c(c2)OC(O)(C(=O)O)C(=O)N3Cc2ccccc2)cc1 (stereo not shown)  root length (Arabidopsis thaliana; Col-0; 12.5 µg/mL, seed germination): 0.731 cm
FC(F)(F)c1ccc(C2=NOC3(NC(c4ccccc4)=NO3)N2c2ccccc2)cc1 (stereo not shown)  viability (HepG2; cell growth or viability, ATP luminescence; 10 µM, 72 h): > 75%
COc1cc(C(=O)OCCCN2CCCN(CCCOC(=O)c3cc(OC)c(OC)c(OCc4ccc([N+](=O)[O-])cc4)c3)CC2)cc(OC)c1OC  pIC50 (Equilibrative nucleoside transporter 1 (SLC29A1, Homo sapiens, UniProt Q99808, del243-274/L168F/N288K/P175A); ligand displacement): 7.03
O=C(O)C1(O)Oc2cc(Br)ccc2N(Cc2ccccc2)C1=O (stereo not shown)  root length (Arabidopsis thaliana; Col-0; 12.5 µg/mL, seed germination): 0.939 cm
Cc1nc(C)c(C=[N+]([O-])C(C)(C)C)nc1C  protein level (primary rat midbrain neurons; Western blot, refers to: MEF2D; 100 µM, unit not given, added: MPP+; baseline: β-actin): 122 and 125 and 107
Cc1ccc(O)c(C)c1-c1cnc2[nH]c(-c3cnc(N4CCC5(CC4)CC(N4CCN(c6ccc(N[C@H]7CCC(=O)NC7=O)cc6F)CC4)CO5)nc3)cc2c1C#N (single isomer, unassigned)  inhibition (HuCCT-1; cell proliferation; 4.57 nM): 6.13% and 4.74% and 0.53%

A few entries again:
CS(=O)(=O)c1ccc(OC/C(=C/F)CN)cc1.Cl  inhibition (Amine oxidase [flavin-containing] B (MAOB, Homo sapiens, UniProt P27338); enzyme activity, inhibitor; 1.111 µM): 0.195% and -0.111%
